# Measured values gathered from unrelated publications.
# Protocols differ between the studies behind these lines.
SMILES,assay,test system,setting,endpoint,result
Cc1ccc(Sc2ccccc2N2CCNCC2)c(C)c1,any TEAE,healthy adult men,"oral, 10 mg single dose, 8 nights, fed",adverse event incidence,10.5%
CNC(=O)c1ccc(-c2cnc3ncc(Cc4ccc5ncccc5c4)n3n2)cc1F,"phase 1 clinical trial, refers to: blood creatinine increased",all expansion cohorts,"oral, 600 mg twice daily, grade 3 or 4",adverse event incidence,3%
Cc1c(C(=O)O)ccc2c3n(nc12)[C@@H]1[C@H](C3)N(CC2CC2)[C@@]2(C(=O)Nc3cc(Cl)ccc32)[C@H]1c1cccc(Cl)c1F,"phase Ia trial, refers to: Anemia",cancer patients,"oral, dose not given, all patients all grades",adverse event incidence,46.3%
FC(F)(F)c1ccc(CNc2ccc(Cc3c[nH]c4ncc(Cl)cc34)cn2)cn1,refers to: Pyrexia,patients with advanced solid tumours,"oral, dose not given, grade 1 and 2, possibly related to drug",adverse event incidence,11%
NCCONC(=O)[C@@H]1CC[C@@H]2CN1C(=O)N2OS(=O)(=O)O,refers to: leading to withdrawal,healthy Chinese men,"intravenous, 1 g, treatment-emergent",adverse event incidence,0%
CC(=O)O[C@H]1C(=O)[C@@]2(C)[C@H]([C@H](OC(=O)c3ccccc3)[C@]3(O)C[C@H](OC(=O)[C@H](O)[C@@H](NC(=O)c4ccccc4)c4ccccc4)C(C)=C1C3(C)C)[C@]1(OC(C)=O)CO[C@@H]1C[C@@H]2O,refers to: neutropenia,patients with advanced solid tumours,"intravenous, dose not given, phase Ib, related to compound","adverse events, all grades",43%
Cc1cc(Nc2ccc(S(F)(F)(F)(F)F)cc2)n2nc(C(C)(F)F)nc2n1,,Plasmodium falciparum malaria patients,"oral, 250 mg",adverse event Pyrexia,27.3%
O=C1CCc2ccc(OCCCCN3CCN(c4cccc(Cl)c4Cl)CC3)cc2N1,refers to: Hypertension,"genotyped patients, CYP2D6 intermediate metabolizers","dose not given, long-acting oral or depot",adverse event incidence,1.8%
Cc1c(Cl)c(C)[n+]([O-])c(Cl)c1-c1noc(-c2cc(O)c(O)c([N+](=O)[O-])c2)n1,refers to: Bloating,healthy Chinese subjects,"oral, 25 mg, 4 days",adverse drug reaction incidence,6.7%

# For quick reference, copied from above:
SMILES,assay,test system,setting,endpoint,result
NCCONC(=O)[C@@H]1CC[C@@H]2CN1C(=O)N2OS(=O)(=O)O,refers to: leading to withdrawal,healthy Chinese men,"intravenous, 1 g, treatment-emergent",adverse event incidence,0%
